Published values gathered from unrelated publications.
Parts stem from different laboratories: compare values within a part only.

Sample 1 — method: competition protein-binding microarray; form: double-stranded DNA, one strand shown; sample: in vitro; concentration: 2 µM; with: Cbf1 competitor, 0.05 µM; direction: higher = stronger binding; constant ends, left off below: … GTCTTGATTCGCTTGACGCTGCTG
Target: Phosphate system positive regulatory protein PHO4, full length, GST-tagged (PHO4, Saccharomyces cerevisiae, UniProt P07270, residues 1-312)
Setting: whole 60-bp probe, lowest competitor level
Construct (chain): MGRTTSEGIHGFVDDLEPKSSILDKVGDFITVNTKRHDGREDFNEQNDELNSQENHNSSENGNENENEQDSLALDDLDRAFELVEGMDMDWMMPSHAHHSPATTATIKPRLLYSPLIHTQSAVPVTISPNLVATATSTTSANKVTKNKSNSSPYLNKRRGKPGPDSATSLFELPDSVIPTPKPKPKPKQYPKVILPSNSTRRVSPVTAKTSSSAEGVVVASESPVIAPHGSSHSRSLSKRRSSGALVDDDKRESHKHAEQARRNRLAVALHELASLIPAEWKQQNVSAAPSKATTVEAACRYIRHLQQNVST
The fluorescence intensity of `CATACCCAACCTTGTCACTCGACTTAAGATATTTGT` is reported as 3410 a.u.
`ATTTGAACATTGAATCATGTGTACCTAACATAAAAT` has a fluorescence intensity of 9040 a.u.
`ATGTTCATGGAAAAGCACGTGCCACTCCACTTCCAA` has a fluorescence intensity of 20900 a.u.
The fluorescence intensity of `TATCGAAAAGGTCCTCACGTTATAAGGCTAACAAAT` is reported as 6410 a.u.
With `CTTCTGTAAATTTGTGAGGTGGGTGGACGCGCCCCG` the fluorescence intensity was 4630 a.u.
`TGGGTATCTGCTTGTCAGGTGCAGGCCCAACTATCT` gave a fluorescence intensity of 4040 a.u.
`CGTCCTAGTGATTGTATAGTGGGTGCCATGAGGAAG` has a fluorescence intensity of 7010 a.u.
For `TTCTTGGAGTCGTAGAACATGACAACCGGGGGAGCA`, the fluorescence intensity was 4160 a.u.
The fluorescence intensity of `TGCGCAACAACTTTTCACGTGTGGTTATGTCTAGAA` is reported as 14000 a.u.
`AGCGACTATATTTTGCACGCTCTTAAAGCAGCCACC` gave a fluorescence intensity of 7610 a.u.
`TGGTGCACTATCCATTTCGTGCTTTTTGGTTATTGT` gave a fluorescence intensity of 5640 a.u.
The fluorescence intensity of `CGTTCTTAGCTGGTTCATGTGGATAAACATCTAAAG` is reported as 5320 a.u.
`GTCTTGTCTCATTGTCACTGTACTTTCCCCACTTCA` gave a fluorescence intensity of 4720 a.u.
The fluorescence intensity of `ACCGTATTTGCTCCTCACGTGTCCAGTAGGTTTCGG` is reported as 15600 a.u.
With `CTTAACAGCAACTTGAACGTGAAGATGAACTTTACT` the fluorescence intensity was 6980 a.u.
The fluorescence intensity of `TTGTTATCGTTAAACCACATGATGAAGGTTCCAAGT` is reported as 7200 a.u.
The fluorescence intensity of `CATACCCAACCTTGTATGGTGGGTGAAGATATTTGT` is reported as 4210 a.u.
`TGCGTTTTGGTCTACGATGTGACAGTTGCCAGTTCC` has a fluorescence intensity of 3560 a.u.
`AAGGGAAAAAGCTTTGGCGTGCTTTACGATATGGCT` has a fluorescence intensity of 6370 a.u.

Sample 2 — method: protein binding microarray; form: double-stranded DNA, one strand shown; sample: in vitro; concentration: not given; relative to: not given; direction: higher = stronger binding
Target: Histone acetyltransferase KAT6A, both winged helices, GST fusion (KAT6A, Homo sapiens, UniProt Q92794, residues 1-181)
Setting: 8-mer, flanks averaged, mean of 2 arrays, mostly near background
Construct (chain): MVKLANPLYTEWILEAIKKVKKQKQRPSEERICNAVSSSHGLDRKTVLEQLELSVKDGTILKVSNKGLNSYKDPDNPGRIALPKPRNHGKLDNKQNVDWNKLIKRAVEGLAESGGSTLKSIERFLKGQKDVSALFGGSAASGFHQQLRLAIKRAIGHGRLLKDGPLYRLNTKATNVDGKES
With `CCGCTCAC` the E-score was 0.256.
The E-score of `ACCTCAAC` is reported as -0.127.
With `ACCTCGTG` the E-score was 0.0275.
For `ATGCCATC`, the E-score was -0.0368.
The E-score of `CGTAGAGC` is reported as 0.0604.
With `AATAGTAG` the E-score was -0.107.
`GGTATCCA` gave an E-score of 0.0113.
For `ACTCATAT`, the E-score was -0.00371.
The E-score of `GCTAGGCA` is reported as -0.0337.
With `GGGCGGCA` the E-score was 0.26.
With `AACGACTA` the E-score was 0.00715.
With `GACTGCTA` the E-score was -0.177.
With `CGAAAATC` the E-score was -0.0747.
With `AATTGTGA` the E-score was -0.0824.
`GTCTGATA` gave an E-score of 0.0336.
The E-score of `CCAGCCAA` is reported as -0.185.
The E-score of `GGCGTAGA` is reported as 0.0105.
`ACCAGTTC` gave an E-score of 0.0424.
`TCGCCCAA` gave an E-score of -0.139.
`ATACCGAG` has an E-score of 0.0166.
For `AGTCAGTC`, the E-score was -0.0366.
`CATTAAGA` gave an E-score of -0.163.
With `AGCCGCGC` the E-score was 0.348.
`ATGCAGTA` has an E-score of -0.104.

Sample 3 — method: protein-binding microarray; form: double-stranded DNA, one strand shown; sample: in vitro; concentration: not given; direction: higher = stronger binding
Target: Protein C-ets-1 (ETS1, Homo sapiens, UniProt P14921, residues 1-441, Y397A, full length assumed)
Setting: k-mer, scored over probes, only values ≥0.25
Residues (chain): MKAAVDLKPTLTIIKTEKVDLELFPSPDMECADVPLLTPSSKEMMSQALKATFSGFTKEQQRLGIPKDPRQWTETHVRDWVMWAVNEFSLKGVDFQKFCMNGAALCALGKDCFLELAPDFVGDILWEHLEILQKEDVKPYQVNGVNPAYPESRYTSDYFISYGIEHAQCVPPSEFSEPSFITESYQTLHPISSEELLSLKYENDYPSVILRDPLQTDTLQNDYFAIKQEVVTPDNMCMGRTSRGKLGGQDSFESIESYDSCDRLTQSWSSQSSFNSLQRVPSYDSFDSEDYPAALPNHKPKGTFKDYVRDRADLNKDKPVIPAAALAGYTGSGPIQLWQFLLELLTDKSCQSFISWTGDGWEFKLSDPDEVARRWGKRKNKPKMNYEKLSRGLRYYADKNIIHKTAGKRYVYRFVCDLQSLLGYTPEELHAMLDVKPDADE
The E-score of `ACAAAAAA` is reported as 0.288.
For `ACATATCC`, the E-score was 0.265.
`GTACGACA` has an E-score of 0.287.
The E-score of `CGGATGTA` is reported as 0.423.
The E-score of `CCGGAAAA` is reported as 0.297.
`ACATCCGC` has an E-score of 0.42.
For `AATGGCAC`, the E-score was 0.29.
`CAACATAA` gave an E-score of 0.28.
`ATCTGTCA` has an E-score of 0.282.
`CAACTTCC` has an E-score of 0.425.
`ACACAACA` gave an E-score of 0.291.
With `ATTTTCCG` the E-score was 0.328.
For `GAAACGAC`, the E-score was 0.282.
With `AAGTAACA` the E-score was 0.261.
`CGCCCACA` gave an E-score of 0.261.
`TGTCGACA` gave an E-score of 0.295.
The E-score of `ACGTCAAA` is reported as 0.279.
`ACAAACAC` gave an E-score of 0.346.
`CGGAAGTC` has an E-score of 0.474.
For `CCCCTCCA`, the E-score was 0.26.

Sample 4 — method: universal PBM; form: double-stranded DNA, one strand shown; sample: in vitro; concentration: 600 nM; direction: higher = stronger binding
Target: Sal-like protein 4, full length isoform A (SALL4, Homo sapiens, UniProt Q9UJQ4, residues 1-1053)
Sequence of UniProt Q9UJQ4 (whole entry, looked up): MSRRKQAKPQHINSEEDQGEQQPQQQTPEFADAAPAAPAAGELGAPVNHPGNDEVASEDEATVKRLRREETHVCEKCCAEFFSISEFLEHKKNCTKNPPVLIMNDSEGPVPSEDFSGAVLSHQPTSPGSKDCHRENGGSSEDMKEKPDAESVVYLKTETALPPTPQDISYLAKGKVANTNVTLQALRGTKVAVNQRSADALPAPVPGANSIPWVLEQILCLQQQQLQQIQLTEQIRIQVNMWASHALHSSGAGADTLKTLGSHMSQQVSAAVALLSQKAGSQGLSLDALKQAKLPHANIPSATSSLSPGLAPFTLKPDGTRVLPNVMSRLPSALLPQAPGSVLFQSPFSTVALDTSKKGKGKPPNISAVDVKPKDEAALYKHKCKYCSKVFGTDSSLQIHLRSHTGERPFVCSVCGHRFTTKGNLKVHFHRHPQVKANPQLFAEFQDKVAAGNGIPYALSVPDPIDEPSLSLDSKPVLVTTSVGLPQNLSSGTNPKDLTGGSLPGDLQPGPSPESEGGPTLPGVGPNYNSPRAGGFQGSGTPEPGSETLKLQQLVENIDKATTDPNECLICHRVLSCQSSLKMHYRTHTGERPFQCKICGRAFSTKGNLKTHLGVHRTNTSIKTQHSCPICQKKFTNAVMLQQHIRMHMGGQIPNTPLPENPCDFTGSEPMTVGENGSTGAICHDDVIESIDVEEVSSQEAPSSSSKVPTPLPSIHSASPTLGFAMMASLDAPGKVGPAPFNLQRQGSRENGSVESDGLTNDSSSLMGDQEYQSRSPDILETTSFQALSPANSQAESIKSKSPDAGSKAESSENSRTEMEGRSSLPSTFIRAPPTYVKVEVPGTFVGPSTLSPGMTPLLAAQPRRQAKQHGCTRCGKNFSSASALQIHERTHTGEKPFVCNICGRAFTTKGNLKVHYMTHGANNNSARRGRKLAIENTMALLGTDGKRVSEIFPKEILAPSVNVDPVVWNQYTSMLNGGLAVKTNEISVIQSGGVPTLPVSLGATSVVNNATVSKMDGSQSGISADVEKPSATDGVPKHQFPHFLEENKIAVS
Setting: 8-mer, flanks averaged, mean of replicates
For `AGCACTAT`, the E-score was 0.1.
For `AAATCCTC`, the E-score was -0.193.
For `CAGAGGCC`, the E-score was -0.288.
`GGGCCTAA` has an E-score of -0.325.
`ATGAGTCA` gave an E-score of 0.205.
`CCTATAAA` has an E-score of 0.204.
For `AGACAATC`, the E-score was 0.0848.
`CGCCAGAA` gave an E-score of -0.151.
For `GACCGCTA`, the E-score was -0.194.
The E-score of `AACGAGAT` is reported as 0.0704.
With `CCTCTGGA` the E-score was -0.175.
With `CACTCCTC` the E-score was -0.161.
`CTGGAGAC` has an E-score of -0.267.
`AGTTGAAA` has an E-score of 0.17.
The E-score of `ACAGTACG` is reported as 0.0274.
The E-score of `CATTGCAA` is reported as 0.126.
`CTTGTTTA` has an E-score of 0.0968.
`CGTAGACC` gave an E-score of -0.203.
`TAAGGGCA` has an E-score of -0.0743.
The E-score of `CTTAAAGC` is reported as -0.0427.
With `GATAGCCA` the E-score was -0.112.
For `ACCACCCG`, the E-score was -0.339.
For `AGATGGCA`, the E-score was 0.0387.
`CTACTAGC` has an E-score of 0.022.
`AAGTGAAC` has an E-score of 0.0376.

Sample 5 — method: aptamer microarray, sandwich; form: DNA with 2'F-ANA; sample: in vitro; concentration: 200 nM; with: Cy3 exosite-II aptamer, 400 nM; direction: higher = stronger binding; strand: GGTTGGTGTGGTTGG
Target: Prothrombin, mature alpha-thrombin (F2, Homo sapiens, UniProt P00734)
Setting: whole 15-mer aptamer, many near background
Under “mean fluorescence intensity”, `2'F-ANA at 2 3 4 5 6 7 9 15` is recorded as 119 a.u.
For `2'F-ANA at 3 4 5 9 10 11 12`, “mean fluorescence intensity” read 120 a.u.
Under “mean fluorescence intensity”, `2'F-ANA at 2 5 7 11 12 14` is recorded as 183 a.u.
`2'F-ANA at 1 3 4 6 7 9 10 15` — result for “mean fluorescence intensity”: 63.1 a.u.
For `2'F-ANA at 1 4 5 6 7 8 9 10 11 13`, “mean fluorescence intensity” read 61.2 a.u.
For `2'F-ANA at 2 3 5 6 8 9 10 11 13 14 15`, “mean fluorescence intensity” read 56.5 a.u.
`2'F-ANA at 1 3 4 10 11 14` — result for “mean fluorescence intensity”: 92.9 a.u.
Under “mean fluorescence intensity”, `2'F-ANA at 3 4 7 9 10 11 12 15` is recorded as 284 a.u.
For `2'F-ANA at 2 4 5 9 11`, “mean fluorescence intensity” read 74.7 a.u.
`2'F-ANA at 1 3 4 5 6 7 8 9 10 11 12 13 14`: “mean fluorescence intensity” 47.7 a.u.
Under “mean fluorescence intensity”, `2'F-ANA at 2 3 5 6 12 15` is recorded as 173 a.u.
For `2'F-ANA at 2 4 8 10 12 14 15`, “mean fluorescence intensity” read 72.8 a.u.
`2'F-ANA at 4 5 6 7 11 13 14 15`: “mean fluorescence intensity” 46.6 a.u.
For `2'F-ANA at 2 3 4 5 8 9 10 11 12 13 14`, “mean fluorescence intensity” read 53.9 a.u.
`2'F-ANA at 1 3 4 5 6 8 9 12 13 14` — result for “mean fluorescence intensity”: 45.6 a.u.
Under “mean fluorescence intensity”, `2'F-ANA at 2 5 6 7 13 15` is recorded as 51.1 a.u.
Under “mean fluorescence intensity”, `2'F-ANA at 1 2 3 4 12 13 14` is recorded as 68.4 a.u.
`2'F-ANA at 8 9 10 11 14` — result for “mean fluorescence intensity”: 109 a.u.
`2'F-ANA at 6 7 12 14 15` — result for “mean fluorescence intensity”: 241 a.u.
`2'F-ANA at 3 4 6 7 10 11 14 15` — result for “mean fluorescence intensity”: 196 a.u.
`2'F-ANA at 1 2 5 10 11 12 13 14`: “mean fluorescence intensity” 44.1 a.u.

Repeated from above (sample 5):
For `2'F-ANA at 3 4 5 9 10 11 12`, “mean fluorescence intensity” read 120 a.u.
Under “mean fluorescence intensity”, `2'F-ANA at 2 5 7 11 12 14` is recorded as 183 a.u.
`2'F-ANA at 1 3 4 6 7 9 10 15` — result for “mean fluorescence intensity”: 63.1 a.u.
For `2'F-ANA at 1 4 5 6 7 8 9 10 11 13`, “mean fluorescence intensity” read 61.2 a.u.
For `2'F-ANA at 2 3 5 6 8 9 10 11 13 14 15`, “mean fluorescence intensity” read 56.5 a.u.
`2'F-ANA at 1 3 4 10 11 14` — result for “mean fluorescence intensity”: 92.9 a.u.
Under “mean fluorescence intensity”, `2'F-ANA at 3 4 7 9 10 11 12 15` is recorded as 284 a.u.
For `2'F-ANA at 2 4 5 9 11`, “mean fluorescence intensity” read 74.7 a.u.
